# Measured values collected from several papers.
# Each numbered part is a random draw from the data of one study; scales do not carry over between parts. Changes are numbered by the printed parent chain.

# Sample 1
# Target: ABI1, truncated, D143A, DHFR fusion (Arabidopsis thaliana)
# Method: DHFR PCA, deep sequencing
# Matrix: yeast
# Notes: methotrexate growth selection, single substitutions
# Added: (+)-ABA 1.4 µM
# Reference: wild-type fitted maximum
# Direction: higher = stronger binding
# Starting sequence: PYL1, truncated, DHFR fusion (Arabidopsis thaliana); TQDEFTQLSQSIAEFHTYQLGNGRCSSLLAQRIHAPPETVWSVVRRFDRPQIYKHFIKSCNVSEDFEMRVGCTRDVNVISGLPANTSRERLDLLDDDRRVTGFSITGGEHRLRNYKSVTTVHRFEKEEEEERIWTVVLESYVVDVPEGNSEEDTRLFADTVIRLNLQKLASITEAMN
Variant,relative binding score [%]
V40H,-18.9
D92N,3.5
A30T,53.3
G23S,27.1
K168Q,46
K168W,48.9
V43Q,-8.3
V121N,-12.4
L29S,2.27
V143D,2.42
A30I,45.3

# Sample 2
# Target: Sal-like protein 4, full length isoform B (SALL4, Homo sapiens, UniProt Q9UJQ4-2, residues 1-616)
# Method: universal PBM
# Form: double-stranded DNA, one strand shown
# Matrix: in vitro
# Concentration: not given
# Notes: 8-mer, flanks averaged, mean of replicates
# Direction: higher = stronger binding
Sequence,E-score
GGATGGAC,-0.0935
CATTGGGG,-0.0884
CTAACAAG,0.155
GGAGCGCC,-0.357
ATAGATCG,0.0556
GAGTAGAC,-0.0942
CACGAGAG,-0.168
AGACATCA,0.0554
ACCTAACT,0.0638
CAGATCTA,0.081
AGCCACTG,-0.296
CGGTCACA,-0.204
AATAAATA,0.425

# Sample 3
# Target: RNA binding protein fox-1 homolog 2, RRM domain, GST-SBP tag (RBFOX2, Homo sapiens, UniProt O43251-10, residues 100-194)
# Method: RNA Bind-n-Seq
# Form: RNA
# Matrix: in vitro
# Concentration: 365 nM
# Notes: natural RNA segment, single round, ends assumed
# Reference: no-protein control
# Direction: higher = stronger binding
# All sequences stand within: GGGAGUUCUACAGUCCGACGAUC … UGGAAUUCUCGGGUGCCAA
# Target sequence (chain): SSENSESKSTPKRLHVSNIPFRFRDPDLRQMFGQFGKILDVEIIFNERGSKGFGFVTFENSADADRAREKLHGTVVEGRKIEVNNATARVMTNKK
Sequence,RBNS enrichment (R)
CUUUUGUCAUUUGUUUUUUGGAGUAGUUUUGAAAAGUGUCUAUAUUGAGUACACUAUUGCUGUCCAUUGCUGCUGUGAAGCCCUAGCUGAAUAUAGAUGUACAAAUCAGU,0.667
UACAUGGUGAUCUUAAAAACACCCACCUGCACCAUCACACCAGACUGUACCACUAGGGCAUCCAGAACAAGCCCCACCCUAACAGUGGGGGCAGGGAGGGUACAGCCAGG,0.412
AUGACCAGGAGACAGCCAGUUUCAAGGGCUGUCUGCCUAGCAGAGGCCAAGUGGUUUGAAGUUAUUUUUAACCACAGAAGAGUUAAUUUUAUACAAAUAAAUGUAAAUGU,0.336
UCUCGGCCUCUGUGGGAUUUAGGGAAGCAUUAUAAAUGCAUUAAUCCUUAUAGUCAAUUCUGUGCCUAGGAUUUUGCCAGGGAACAGUUCACUGACUAGGAAAAGCACUA,0.272
UAGUUUCACAGUGCUGGCAAUGAAGCCCGUGGCCCACCACGCUAGGCGAGUGCUCUGCCACUGAGUCACGGCCCAGCCCUCUCUCCCUCAUUCUUCUGUUUCCAUACCAA,0.281
UGGCCACCCCUGCAGGGGAGCUACAGUGAGGCCUGGGGCUGGAUUCCACCCACAGUCCCUUCCCUGUGCACCCUGCUUUGUCCCCUGCCUUGUCCCCUGCUCUCUCUUCU,0.581
UUUGAAGAUCUGUCCAUAUUCAGGAAUCUGAGAGUGUAAAAAAGGUACCAAUCAUUGAUUUUUUUUUUUUUUGUAAACUAAAAUGUUUAAAAUAAAAUAGCAUUUACAGU,0.713
AUCUACAUAGCUUUCUCUCUCCAGUGCCUCUACUACGUGAGGGAGGCCCAUGGCAUUGUGGUGACGGAUGUGGCCUUUCUACCUGAGAAGGGUCGUGGUCCAGAGCUCCU,0.23

# Further values, each from its own experiment
Substance,target,test,system,setting,how to read,measurement,result
"PhoQ, residues 284 288 289 292 302 303 NLMGRA","PhoP, residues 12 14 15 18 19 LHHSG (Escherichia coli, UniProt P23836)","Sort-seq, item: YFP reporter",E. coli,"PhoQ-PhoP variant library, added: 10 µM Mg2+","reference: high Mg2+ state, higher = stronger signaling",fold induction,10.5
